Experimental data gathered from unrelated publications.
Each line is one published result; not all experiments were run side by side. Values joined by “and” are separate records of one study, mostly repeats; a detail may differ. ± marks the error that the study gave.

For `CCCCCCCCCCCCCCCC(=O)N[C@@H](CCC(=O)NCCCC[C@H](NC(=O)[C@H](C)NC(=O)[C@H](C)NC(=O)[C@H](CCC(N)=O)NC(=O)CNC(=O)[C@H](CCC(=O)O)NC(=O)[C@H](CC(C)C)NC(=O)[C@H](Cc1ccc(O)cc1)NC(=O)[C@H](CO)NC(=O)[C@H](CO)NC(=O)[C@@H](NC(=O)[C@H](CC(=O)O)NC(=O)[C@H](CO)NC(=O)[C@@H](NC(=O)[C@H](Cc1ccccc1)NC(=O)[C@@H](NC(=O)CNC(=O)[C@H](CCC(=O)O)NC(=O)[C@H](C)NC(=O)[C@@H](N)Cc1cnc[nH]1)[C@@H](C)O)[C@@H](C)O)C(C)C)C(=O)N[C@@H](CCC(=O)O)C(=O)N[C@@H](Cc1ccccc1)C(=O)N[C@H](C(=O)N[C@@H](C)C(=O)N[C@@H](Cc1c[nH]c2ccccc12)C(=O)N[C@@H](CC(C)C)C(=O)N[C@H](C(=O)N[C@@H](CCCNC(=N)N)C(=O)NCC(=O)N[C@@H](CCCNC(=N)N)C(=O)NCC(=O)O)C(C)C)[C@@H](C)CC)C(=O)O`, the AST was 81.9 ± 3.9 U/L (mouse DIO; dose not given, day 32 chronic).
For `COc1cccc(OC)c1-c1cc(C(=O)NC2(C(=O)O)C3CC4CC(C3)CC2C4)nn1-c1ccc(C(=O)N(C)CCOCCN(C)C(=O)[C@H](CCCCNC(=O)[C@H](CC(C)C)NC(=O)C2OC2C(=O)O)NC(=O)CN2CCN(CC(=O)[O-])CCN(CC(=O)[O-])CCN(CC(=O)[O-])CC2)cc1C(C)C.[177Lu+3]` (mixture of isomers), the tissue uptake was 0.29 %ID/g (mouse, HT-29 xenograft, lung; 72 h post injection).
With `CCc1cnc(NC(=O)c2cc(S(=O)(=O)N3CCOCC3)ccc2N(C)C2CCCC2)s1` the haematocrit was 48.7% (mouse; 10 mg/kg, 3 doses).
The Cmax of `CC[C@H](C)[C@@H]1NC(=O)[C@H](Cc2ccc(O)cc2)NC(=O)CCCSC[C@@H](C(=O)N(CC(=O)N[C@@H](CC(C)C)C(=O)NCC(N)=O)Cc2ccc(F)cc2)NC(=O)[C@H](CC(N)=O)NC(=O)[C@H](CCC(N)=O)NC1=O` is reported as 0.466 ng/mL (human, plasma; intravenous, 20 µg, infusion).
The fluorescence lifetime of `CCCCN1C(=O)c2cccc3c(NCCCCCCCCN4CCOCC4)ccc(c23)C1=O` is reported as 10.5 ns (DMSO).
Under “short-term stability accuracy”, `CCn1c(=O)c(-c2cc(NC(=O)Nc3ccccc3)c(F)cc2Br)cc2cnc(N)cc21` is recorded as 9.07% (human plasma; 4000 ng/mL, 24 h, 24 °C, high QC).
`Cc1cc(C)n(CCN(CCN)CCCCCCNC(=O)[C@@H](N)Cc2c[nH]cn2)n1.[99Tc+].[C-]#[O+].[C-]#[O+].[C-]#[O+]` has a tumour-to-tissue ratio of 2 (BALB/c nude mice A549 xenograft; intravenous, 24 h; reference: tumour over lung).
With `CC(C)OCCOCc1ccc(OCC(O)CN(N=O)C(C)C)cc1` (stereo not shown) the fold change was 1.09 (duplex sequencing, measured: mutation frequency; NMRI mouse, liver; oral, 9.95 mg/kg/day, 4 weeks; reference: vehicle).
For `CC(=O)N[C@@H](Cc1ccccc1)C(=O)N[C@@H](CC(C)C)C(=O)NCC(=O)N[C@H](C(=O)N[C@@H](CC(C)C)C(=O)N[C@@H](C)C(=O)N[C@@H](CC(C)C)C(=O)N[C@@H](CC(C)C)C(=O)NCC(=O)N[C@@H](Cc1ccc(O)cc1)C(=O)N[C@@H](CC(C)C)C(=O)N[C@@H](C)C(=O)N[C@H](C(=O)N[C@@H](CCCNC(=N)N)C(=O)N1CCC[C@H]1C(=O)N[C@@H](Cc1ccccc1)C(=O)N[C@@H](CC(C)C)C(=O)N1CCC[C@H]1C(=O)N[C@@H](CCCCN)C(=O)N[C@@H](CCCCN)C(=O)N[C@@H](CCCCN)C(=O)N[C@@H](CCC(N)=O)C(=O)N[C@@H](CCC(N)=O)C(=O)N[C@@H](CCCCN)C(N)=O)C(C)C)C(C)C`, “cleaved to intact ratio” read 0.08 ± 0.08 (LC-MS; DOPC vesicles with trypsin; 10 µM, 12 h, pH 7.2).
`Cc1nn(-c2nc3c(F)cc(F)cc3s2)c(O)c1C(c1ccc(C(F)(F)F)cc1)c1c(C)nn(-c2nc3c(F)cc(F)cc3s2)c1O` gave a Tlag of 0 h (ICR mouse, plasma; intraperitoneal, 10 mg/kg).
The urine volume of `CC(C)[C@H](NC(=O)[C@H](Cc1c[nH]c2ccccc12)NC(=O)[C@H](CCCNC(=N)N)NC(=O)[C@H](CCCNC(=N)N)NC(=O)[C@@H](NC(=O)[C@@H](NC(=O)[C@H](CCCNC(=N)N)NC(=O)[C@@H](NC(=O)[C@@H](NC(=O)[C@H](CCCNC(=N)N)NC(=O)[C@H](CCCNC(=N)N)NC(=O)[C@@H](NC(=O)[C@H](Cc1c[nH]c2ccccc12)NC(=O)[C@H](CCCNC(=N)N)NC(=O)[C@H](CCCNC(=N)N)NC(=O)[C@@H](NC(=O)[C@H](CCCNC(=N)N)NC(=O)[C@H](CCCNC(=N)N)NC(=O)[C@@H](NC(=O)[C@H](Cc1c[nH]c2ccccc12)NC(=O)[C@H](CCCNC(=N)N)NC(=O)[C@@H](N)CCCNC(=N)N)C(C)C)C(C)C)C(C)C)C(C)C)C(C)C)C(C)C)C(C)C)C(=O)N[C@@H](CCCNC(=N)N)C(=O)N[C@@H](CCCNC(=N)N)C(=O)O` is reported as 160 µL/day/g body weight (CD1 mouse, urine; intravenous, 15 mg/kg, 6 to 24 h, [14C]-labelled compound).
The tissue uptake of `O=C(CN1CCN(CC(=O)NCc2ncccc2O)CCN(CC(=O)NCc2ncccc2O)CCN(CC(=O)NCc2ncccc2O)CC1)NCc1ncccc1O.[177Lu+3]` is reported as 1.35 ± 0.443 % injected dose/g (Sprague-Dawley rat, spleen; intravenous (tail vein), dose not given, 2 h).
With `O=C(NS(=O)(=O)c1cccs1)c1cc2ccccc2n1Cc1ccc(Br)c2ccccc12` the body weight was 28.4 g and 30 g and 28 g and 24.4 g and 27.2 g and 28.8 g (KM mouse, chronic hyperuricaemia model; dose not given, day 7).
`[123I]c1ccc2nc(-c3ccc(-n4ccnn4)nc3)cn2c1` gave a tracer uptake of 0.997 %ID/g (male Wistar rat, stomach; intravenous, 4 MBq, 3 h).
Under “radioactivity recovery per interval”, `Cc1cc(-c2ccc(C(=O)[C@@H]3CCCC[C@H]3C(=O)Nc3cnn4c3C(=O)NCC4)cc2)[nH]n1` is recorded as 0.49% and 0.54% and 0.67% and 1.35% and 0.45% and 0.23% (human, urine; oral, 200 mg, 12-24 h; reference: dose).
With `CCCCc1cnc(SCC(=O)c2ccc(S(N)(=O)=O)c(Cl)c2)nc1` the pKa was 8.9 (sulfonamide group).
Under “cysteine adduct formation”, `CC(C)(F)CC(NC(c1ccc(-c2ccc(S(C)(=O)=O)cc2)cc1)C(F)(F)F)C(=O)NCC#CBr` (stereo not shown) is recorded as 17% (PBS; 100 µM, 23 h, pH 8, 37 °C, together with: cysteine 10 mM).
`CN1CCC[C@]1(C)/C=C/S(=O)(=O)NC(=O)Nc1c2c(cc3c1CCC3O)CCC2` (stereo partly shown): “Tmax at first steady-state dose” 3 h (human, plasma; oral, 50 mg twice daily of parent drug, day 14, metabolite of dosed drug).
`CN(O)C(=O)CCC(=O)NCCCN(CCCCN(CCCNC(=O)CCC(=O)N(C)O)C(=O)CCC(=O)N(C)O)C(=O)CCC(=O)N(C)O.[89Zr]` has an intact complex of 98.7 ± 0.6% (radio-TLC; aqueous buffer; 1 d, pH 7, 37 °C, 89Zr-labelled complex, together with: DTPA 100-fold excess).
For `COCC1CN(C2CCN(c3cc(OC)c(Nc4ncc(Br)c(Nc5ccc6c(c5P(C)(C)=O)OCCO6)n4)cc3C)CC2)C1`, the AUC was 20800 ng·h/mL (human, plasma; oral, 150 mg, multiple doses, patients).
The clearance of `C=C(NC(=O)c1csc(-c2nc3c(cc2O)-c2nc(cs2)C(=O)NC(C(C)O)C(=O)NC(=C(C)OC)c2nc(cs2)C(=O)NC2c4nc(cs4)C(=O)NC(COC(=O)c4c5c6c(cccc6n4O)COC(=O)C(OC4CC(C)(O)C(N(C)C)C(C)O4)C2OC5)c2nc-3cs2)n1)C(N)=O` (stereo not shown) is reported as 2.04 mL/min/kg (cynomolgus monkey, both sexes, plasma; intravenous infusion, 1 mg/kg single dose).
With `CCCC[C@H](NC(=O)CNC(=O)CNC(=O)[C@H](CCCCNC(=O)[C@H](CCN)NC(=O)C(C)c1ccc(CC(C)C)cc1)NC(=O)CN1CCN(CC(=O)O)CCN(CC(=O)O)CCN(CC(=O)O)CC1)C(=O)N[C@H]1CC(=O)NCCCC[C@@H](C(N)=O)NC(=O)[C@H](Cc2c[nH]c3ccccc23)NC(=O)[C@H](CCCNC(=N)N)NC(=O)[C@@H](Cc2ccccc2)NC(=O)[C@H](Cc2c[nH]cn2)NC1=O` (stereo partly shown) [lutetium-177 labelled] the tumour-to-tissue ratio was 0.35 (C57 mice, tumour; 2 h; reference: kidney).
`C=CC(=O)Nc1cc(Nc2nccc(-c3c[nH]c4ccccc34)n2)c(OC)cc1N(C)CCN(C)C` gave a recovery of 98.8% (storage stability; human dried blood spots; 72 h, -80 °C, low QC level).
For `CNc1nc(N)nc2c1ncn2C1OC(COP(=O)(O)NC(C)C(=O)O)C(O)C1(C)F` (stereo not shown), “Cmax, arithmetic mean” read 626 ng/mL (healthy adult humans, plasma; oral, 550 mg once daily, day 6, fasted, given alone).
The SUV of `O=C(Nc1cnccc1-c1ccc([18F])cc1)c1ccnc(NC(=O)C2CC2)c1` is reported as 0.17 (FVB/NJ mouse, both sexes, brain; intravenous, 50 min).
The remaining amount of `C=CC(=O)Nc1cc(Nc2nccc(-c3cn(C)c4ccccc34)n2)c(OC)cc1N(C)CCNC` is reported as 92.3% (storage stability; human plasma; 270 ng/mL, 5 h, on ice, HQC level).
`Cc1cc(NC(=O)[C@H](O)c2cc(F)cc(F)c2)ccc1-c1cnc(N)c(C(=O)NC(C)C)c1` gave a dose-normalised Cmax of 166 ng·kg/mL/mg (athymic nude Foxn1nu mouse, female, plasma; oral, 100 mg/kg).
Under “tumour to control tumour ratio”, `[18F]CCn1cc(COc2ccc(-c3nncnn3)cc2)nn1` is recorded as 0.9 (BALB/c nude mouse, LS174T xenograft; intravenous, dose not given, 1 h, together with: CC49-TCO pretargeting).
